Experimental data of several laboratories.
Compare with care: the assays were run in different laboratories. ± marks the error that the study gave. Values after ≈ are worked out from the molar mass of the structure shown.
CHRM2: Muscarinic acetylcholine receptor M2 (CHRM2, Homo sapiens, UniProt P08172)
UniProt P08172, sequence (whole entry, looked up): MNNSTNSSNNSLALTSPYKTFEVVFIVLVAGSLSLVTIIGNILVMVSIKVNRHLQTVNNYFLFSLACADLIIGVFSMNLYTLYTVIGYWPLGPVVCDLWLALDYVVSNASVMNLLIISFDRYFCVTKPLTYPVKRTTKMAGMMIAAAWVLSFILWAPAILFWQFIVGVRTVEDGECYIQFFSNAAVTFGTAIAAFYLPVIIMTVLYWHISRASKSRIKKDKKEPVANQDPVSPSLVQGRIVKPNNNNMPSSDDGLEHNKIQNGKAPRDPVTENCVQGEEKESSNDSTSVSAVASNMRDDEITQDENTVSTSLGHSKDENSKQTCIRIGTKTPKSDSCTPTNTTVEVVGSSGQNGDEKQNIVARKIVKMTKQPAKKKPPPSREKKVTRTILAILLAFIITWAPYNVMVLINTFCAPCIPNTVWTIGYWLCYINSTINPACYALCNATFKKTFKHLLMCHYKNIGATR

CCCC[C@H](NC(=O)CNC(=O)CNC(=O)CN1CCN(CC(=O)O)CCN(CC(=O)O)CCN(CC(=O)O)CC1)C(=O)N[C@H]1CC(=O)NCCCC[C@@H](C(N)=O)NC(=O)[C@H](Cc2c[nH]c3ccccc23)NC(=O)[C@H](CCCNC(=N)N)NC(=O)[C@@H](Cc2ccccc2)NC(=O)[C@H](Cc2c[nH]cn2)NC1=O [lutetium-177 labelled] has a tissue uptake of 1.22 ± 0.27 %ID/g (C57 mouse, female, stomach; intravenous, 0.037 MBq, 4 h).
N=C(N)NCCC[C@@H]1NC(=O)[C@H](Cc2c[nH]c3ccccc23)NC(=O)[C@@H](CC2CCCCC2)NC(=O)[C@@H]2CCCN2C(=O)[C@@H](NC(=O)CCc2ccccc2)CCCNC1=O gave a Cmax of 162 ng/g (C57BL/6J mice, brain; subcutaneous, 1 mg/kg).
CCN(CC)CCCSC(=S)N1CCN(C(=O)/C=C/c2coc3ccc(OC)cc3c2=O)CC1 gave an inactivation effect of 60.1 ± 5.9% (tomato spotted wilt virus; viral infection, half-leaf method; Nicotiana glutinosa; 500 µg/mL).
COc1ccc(CCCN[C@@H]2CCC[C@H]2CN[C@H]2CCC[C@@H]2CNCCCCN[C@@H]2CCC[C@H]2CN)cc1 gave a Ki of 6.4 µM (Lysine-specific histone demethylase 1A (KDM1A, Homo sapiens, UniProt O60341); enzyme activity, inhibitor).
With CCN(CC)CCCSC(=S)N1CCN(C(=O)/C=C/c2coc3ccccc3c2=O)CC1 the curative effect was 61.5 ± 3.7% (tomato spotted wilt virus; viral infection, half-leaf method; Nicotiana glutinosa; 500 µg/mL).
The Kd of [3H]CC([3H])C(=O)NC1CN(CCCCC2CCN(CC(=O)N3c4ccccc4NC(=O)c4ccccc43)CC2)CCN(CCCOc2nsnc2C2=CCCN(C)C2)C1 (stereo not drawn) is reported as 0.001 µM (CHRM2; binding, radioligand).
COc1ccc(C2CC(c3ccc(C)cc3)=Nc3ccccc3S2)cc1OC (stereo not drawn) has an AST (SGOT) of 23.9 ± 2.11 IU/L (Wistar rat, STZ-induced diabetes, serum; 10 mg/kg, 28 days).
CN1CCC=C(c2nsnc2OCCCCCN2CCN(CCCCCOc3nsnc3C3=CCCN(C)C3)CC2)C1 has a Kb of 0.0617 µM (CHRM2; inositol phosphate, antagonist).
The tissue uptake of [64Cu+2].c1ccc(CNCc2ccc(CN3CCCN4CCNCCCN(CC4)CC3)cc2)nc1 is reported as 18.6 ± 1.23 %ID/g (CXCR4; NOD/SCID mouse, U87 and U87-stb-CXCR4 xenografts, spleen; iv, 60 min, ex vivo).
The body weight of COc1ccc(C2CC(c3ccc(C)cc3)=Nc3ccccc3S2)cc1 (stereo not drawn) is reported as 188 ± 4.21 g (Wistar rat, STZ-induced diabetes; oral, 20 mg/kg once daily, day 14).
For Cc1cc([C@H](C(=O)N2C[C@H](O)C[C@H]2C(=O)N[C@@H](CC(=O)N2CCC(N3CCC(C#Cc4ccc(C(=O)N[C@H]5C(C)(C)[C@H](Oc6ccc(C#N)c(Cl)c6)C5(C)C)cc4)CC3)CC2)c2ccc(-c3scnc3C)cc2)C(C)C)on1, “G2/M arrest concentration” read 0.5 µM (MDA-MB-453; flow cytometry; 72 h).
With COc1ccc2c(=O)c(/C=C/C(=O)N3CCN(C(=S)SCCN(C)C)CC3)coc2c1 the EC50 was 179 ± 7.4 µg/mL (≈ 387 µM) (tomato spotted wilt virus; virus inactivation, half-leaf method; Nicotiana glutinosa; tested 31.25 to 500 µg/mL).
O=Cc1c(O)ccc2ccccc12 — result for “log2 fold change”: 2.47 (HUVEC; RNA sequencing, measured: PPP1R15A; 75 µM, 24 h; reference: DMSO).
CC/C=C\C/C=C\C/C=C\C/C=C\C/C=C\CCCCOC(CC)C(=O)O (stereo not drawn) — result for hepatic ceramides: “decreased” (APOE*3Leiden.CETP mice, high-fat/cholesterol diet; dose not given, 20 weeks; reference: control).
CCN(CC)CCSC(=S)N1CCN(C(=O)/C=C/c2coc3cc(F)ccc3c2=O)CC1 gave a curative effect of 60.6 ± 2.6% (tomato spotted wilt virus; viral infection, half-leaf method; Nicotiana glutinosa; 500 µg/mL).
Under “rate constant kOI”, CC[C@H](C)[C@H](NC(=O)[C@H](Cc1ccccc1)NC(=O)[C@@H](NC(=O)[C@@H](NC(=O)[C@H](CC(C)C)NC(=O)[C@H](CCCCN)NC(=O)[C@@H](N)CCCCN)[C@@H](C)CC)[C@@H](C)O)C(=O)N[C@@H](CC(C)C)C(=O)N[C@@H](CCCCN)C(=O)N[C@@H](CCCCN)C(=O)N[C@H](C(=O)N[C@@H](CCCNC(=N)N)C(=O)N[C@@H](CCC(=O)O)C(=O)N[C@@H](CCCCN)C(=O)N[C@@H](CCCCN)C(=O)N[C@@H](CCCCN)C(=O)N[C@@H](CCC(=O)O)C(=O)N[C@@H](CS)C(=O)N[C@@H](CC(C)C)C(=O)N[C@H](C(=O)O)C(C)C)[C@@H](C)O is recorded as 70 s⁻¹ (voltage-gated sodium channel; resurgent sodium current, kinetic model fit; mouse CA3 neurons; 200 µM, membrane potential -10 mV).
Cc1sc2ncn(CC(=O)N3CCCC3)c(=O)c2c1-c1cccc(Br)c1: “amplitude 1 area” 79% (NMDA receptor, mouse; single-channel current, outside-out patch; cortical neurons; concentration not given, added: Ca2+ 0.5 mM).
Under “MIC of colistin”, Oc1cc(C(F)(F)F)ccc1-c1nc2c(C(F)(F)F)cc(C(F)(F)F)cc2[nH]1 is recorded as 0.125 µg/mL (Klebsiella pneumoniae; colistin potentiator; B9; 5 µM).

For quick reference, copied from above:
CN1CCC=C(c2nsnc2OCCCCCN2CCN(CCCCCOc3nsnc3C3=CCCN(C)C3)CC2)C1 has a Kb of 0.0617 µM (CHRM2; inositol phosphate, antagonist).
